{"data": "Experimental data pooled from the literature", "note": "A part holds a random share of what one study measured."}
{"data": "Study 1", "target": "Replicase polyprotein 1ab, main protease (rep, Severe acute respiratory syndrome coronavirus 2, UniProt P0DTD1)", "observed": "enzyme activity", "mode": "inhibitor", "tested at": "20 µM", "setting": "hit confirmation"}
{"Compound": "CNS(=O)(=O)C[C@H]1CC[C@H](N(C)c2ncnc3[nH]ccc23)CC1", "inhibition": "52.5%"}
{"Compound": "O=C1NC(=O)C(c2ccccc2)N1 (stereo not shown)", "inhibition": "69.8%"}
{"Compound": "Cc1ccc2c(c1)C1CN(C)CCC1N2 (stereo not shown)", "inhibition": "-10.6%"}
{"Compound": "O=C1OC2(c3ccccc31)c1cc(Br)c(O)c(Br)c1Oc1c2cc(Br)c(O)c1Br", "inhibition": "97.7%"}
{"Compound": "COc1ccc(C(=O)n2nc(-c3ccccc3)nc2N)cc1OC", "inhibition": "59.2%"}
{"Compound": "C=C1C(=O)[C@]23[C@H](O)[C@H]1CC[C@@H]2[C@@]12CO[C@]3(O)C[C@@H]1C(C)(C)CC[C@@H]2O", "inhibition": "95.1%"}
{"data": "Study 2", "target": "Replicase polyprotein 1ab, nsp13 helicase (rep, Severe acute respiratory syndrome coronavirus 2, UniProt P0DTD1)", "mode": "inhibitor", "tested at": "20 µM"}
{"Compound": "CC(=O)N[C@@H](CC(=O)N[C@@H](CCC(=O)O)C(=O)O)C(=O)O", "inhibition": "-0.88%"}
{"Compound": "CC(=O)N[C@@H](CS)C(=O)O", "inhibition": "1.24%"}
{"Compound": "O=P(O)(NCCCl)NCCCl", "inhibition": "5.62%"}
{"Compound": "CCCCCCCCOc1ccccc1C(=O)Nc1ccc(C(=O)OCC[N+](C)(CC)CC)cc1", "inhibition": "37.7%"}
{"Compound": "O=C1N[C@@H]2[C@@H](O)[C@@H](O)[C@H](O)[C@@H](CO)N2C1=O", "inhibition": "3.08%"}
{"Compound": "O=C(CNC(=O)c1cccc(C(F)(F)F)c1)N[C@@H]1CCN(Cc2ccc(Cl)cc2)C1", "inhibition": "4.73%"}
{"Compound": "CNc1ccc([N+](=O)[O-])cc1-n1cnc(-c2ccc(C(F)(F)F)cc2)c1", "inhibition": "4.82%"}
{"Compound": "CCCCCCCC/C=C\\CCCCCCCC(=O)NCc1ccc(O)c(OC)c1", "inhibition": "-2.76%"}
{"Compound": "NS(=O)(=O)c1cc2c(cc1Cl)N=C(CSCc1ccccc1)NS2(=O)=O", "inhibition": "0.72%"}
{"Compound": "Cc1nnc2ccc(-c3cccc(C(F)(F)F)c3)nn12", "inhibition": "0.38%"}
{"Compound": "COc1[nH]c2ccc(F)cc2c1C(=O)OCC1CCN(CCNS(C)(=O)=O)CC1", "inhibition": "2.95%"}
{"Compound": "CC(C)c1noc(N2CCC(COc3ccc(-c4ccc(S(C)(=O)=O)cc4)nc3)CC2)n1", "inhibition": "0.46%"}
{"Compound": "CCCC(CCC)C(=O)O", "inhibition": "-1.45%"}
{"Compound": "O=C(OCCOCCO)c1ccccc1Nc1cccc(C(F)(F)F)c1", "inhibition": "1.46%"}
{"Compound": "CCOCOC[C@H](C[C@H](C)C(=O)NO)NC(=O)c1ccc(Oc2ccccc2)cc1", "inhibition": "6.81%"}
{"Compound": "O=c1[nH]c2ccccc2n1C1CCN(CCCC(c2ccc(F)cc2)c2ccc(F)cc2)CC1", "inhibition": "-1.06%"}
{"Compound": "CCOC(=O)C1=C(C)NC(C)=C(C(=O)OC)C1c1cccc([N+](=O)[O-])c1 (stereo not shown)", "inhibition": "7.68%"}
{"Compound": "N[C@@H](Cc1cc(CP(=O)(O)O)cc(-c2ccccc2Cl)c1)C(=O)O", "inhibition": "16.1%"}
{"Compound": "CC(C)C(=O)c1c(C(C)C)nn2ccccc12", "inhibition": "6.67%"}
{"Compound": "CCOC(=O)[C@H](CCc1ccccc1)N[C@@H](C)C(=O)N1CCC[C@H]1C(=O)O", "inhibition": "-0.7%"}
{"Compound": "CO/N=C(\\C(=O)N[C@@H]1C(=O)N2C(C(=O)O)=C(Cn3ccc(=N)n3CCO)CS[C@H]12)c1csc(N)n1", "inhibition": "6.07%"}
{"Compound": "CNC(=O)c1ccc2c(c1)CCO[C@H]2CCN1CCN(c2ccc(C(N)=O)cc2)CC1", "inhibition": "5.26%"}
{"Compound": "Cc1ccc(S(=O)(=O)n2c(N)nc3ccccc32)cc1", "inhibition": "4.69%"}
{"Compound": "COc1ccc2c(c1)c(CC(=O)OCC(C(=O)O)c1ccccc1)c(C)n2C(=O)c1ccc(Cl)cc1 (stereo not shown)", "inhibition": "4.78%"}
{"Compound": "Nc1nc(OCC2CCCCC2)c2[nH]cnc2n1", "inhibition": "0.3%"}
{"data": "Study 3", "target": "Fragile X messenger ribonucleoprotein 1, C-terminal low-complexity region (Fmr1, Mus musculus, UniProt P35922)", "technique": "RNA Bind-n-Seq", "molecule type": "RNA", "matrix": "in vitro", "tested at": "200 nM", "setting": "whole 134-nt RNA, ends assumed", "together with": "150 mM KCl", "relative to": "input library", "reading": "higher = stronger binding"}
{"Sequence": "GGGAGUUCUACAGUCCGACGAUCCCUCAAGUCCUGUGCUACACAUCGUAUGUACCGAAUCGGGAGGGGAGGGGAGGAAAGUAUUAUGUUACGCCGUUCGGAUCUGCACUUCCAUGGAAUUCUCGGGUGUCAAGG", "log2 enrichment": 0.563}
{"Sequence": "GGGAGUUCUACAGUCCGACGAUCCCUCAAGUCCUGUGCUACACAUCGUAUGUACCGAAUCGGGUGGGUGGGUGGGGAAAGUAUUAUGUUACGCCGUUCGGAUCUGCACUUCCAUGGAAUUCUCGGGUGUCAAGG", "log2 enrichment": 1.03}
{"Sequence": "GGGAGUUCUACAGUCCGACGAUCAGUCCUGUGCUACACAUCGUAUGUACCGAAUCGGGUUUUUGGGAAAAAGGGAAAGGGAAAGUAUUAUGUUACGCCGUUCGGAUCUGCACUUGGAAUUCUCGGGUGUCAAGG", "log2 enrichment": -0.0179}
{"Sequence": "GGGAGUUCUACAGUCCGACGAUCUCCUGUGCUACACAUCGUAUGUACCGAAUCGGGGUUUUUUGGUUUUUUGGUUUUUUGGGAAAGUAUUAUGUUACGCCGUUCGGAUCUGCAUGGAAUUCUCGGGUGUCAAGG", "log2 enrichment": -0.304}
{"Sequence": "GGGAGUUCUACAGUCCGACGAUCUUGGGUCCAGACUGCGCCACAGCCUCUCGGGAGACGUGGGCCCUCGGAACCUUUUUAGUGCCGGACUCCGGGCCGCAGGCAGUCCCGCGGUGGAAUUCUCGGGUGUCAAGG", "log2 enrichment": -2.29}
{"Sequence": "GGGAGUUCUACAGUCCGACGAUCUGGGAGGUGGAUUUUGUUUAUUUUUUUAGCUCAUUUCCAGGGGUGGGAAUUUUUUUUUACUAUGUGUCAUGAAUAAAGUUGUUUUUGAAAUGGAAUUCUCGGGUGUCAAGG", "log2 enrichment": 0.246}
{"Sequence": "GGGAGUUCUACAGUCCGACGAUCUUUGCUGAUUUCUGGCUGGCGGAUCAGCUGAACAGCCUGUCAGUGAUACUGAUGGACCUGGAAUAUAUGAUCUGCUUCUACAGUUUGGAGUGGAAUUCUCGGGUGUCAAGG", "log2 enrichment": -2.56}
{"Sequence": "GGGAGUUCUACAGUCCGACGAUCUGGGAGGUGGAUUUUGUUUAUUUUUUUAGCUCAUUUCCACGGGUGGGAAUUUUUUUUUAAUAUGUGUCAUGAAUAAAGUUGUUUUUGAAAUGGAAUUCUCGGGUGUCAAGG", "log2 enrichment": 0.0993}
{"data": "Study 4", "target": "Interferon regulatory factor 5, full length, phosphomimetic (IRF5, Homo sapiens, UniProt Q13568-2, residues 1-514, S451D/S453D/S456D/S462D)", "technique": "protein-binding microarray", "molecule type": "double-stranded DNA, one strand shown", "matrix": "in vitro", "tested at": "940 nM top", "setting": "60-bp whole probe", "together with": "salmon DNA 0.4 mg/ml", "relative to": "random background probes", "reading": "higher = stronger binding", "constant ends, left off below": "GCCTAGCAC … GTCTTGATTCGCTTGACGCTGCTG"}
{"Sequence": "GACGGATTGCTTATCCTGACGTGCTAG", "fitted relative affinity [z-score]": -0.56}
{"Sequence": "GTAGGTTTCGACACTGGGTTAGTGCTA", "fitted relative affinity [z-score]": 7.04}
{"Sequence": "TTAGATTTCGACACTGGGTTAGTGCTA", "fitted relative affinity [z-score]": 0.507}
{"Sequence": "TCAGTGATAGCTCTGGTACTGTGCTAG", "fitted relative affinity [z-score]": -0.342}
{"Sequence": "GACGATTTGAGTTCCGAGACGTGCTAG", "fitted relative affinity [z-score]": 0.0967}
{"Sequence": "TTAGATATCGGGACTGGAATAGTGCTA", "fitted relative affinity [z-score]": -0.0804}
{"Sequence": "TCATGTGTAGGTCTTAAACTGTGCTAG", "fitted relative affinity [z-score]": -0.697}
{"Sequence": "TTACATATCGGGACTGGATTAGTGCTA", "fitted relative affinity [z-score]": -0.011}
{"data": "Study 5", "cell line": "HEK-293T/ACE2", "tested at": "concentration not given", "time": "16 (unit not given)", "relative to": "vehicle"}
{"Structure (SMILES)": "C[C@@](Cc1ccc(O)c(O)c1)(NN)C(=O)O", "viability [%]": 106}
{"Structure (SMILES)": "C[C@]12COC(=O)C[C@@H]1CC[C@@H]1[C@@H]2CC[C@@]2(C)[C@H]1CC[C@]2(C)O", "viability [%]": 98.2}
{"Structure (SMILES)": "CN1CCC[C@@H]1Cc1c[nH]c2ccc(CCS(=O)(=O)c3ccccc3)cc12", "viability [%]": 103}
{"Structure (SMILES)": "C[Se]CC[C@H](N)C(=O)O", "viability [%]": 103}
{"Structure (SMILES)": "CCOC(=O)CCC(=O)O[C@H]1[C@H](O[C@@H]2[C@@H](C)[C@H](O[C@H]3C[C@@](C)(OC)[C@@H](O)[C@H](C)O3)[C@@H](C)C(=O)O[C@H](CC)[C@@](C)(O)[C@H](O)[C@@H](C)C(=O)[C@H](C)C[C@@]2(C)O)O[C@H](C)C[C@@H]1N(C)C", "viability [%]": 101}
{"note": "Excerpt of the above (study 1):"}
{"Compound": "CNS(=O)(=O)C[C@H]1CC[C@H](N(C)c2ncnc3[nH]ccc23)CC1", "inhibition": "52.5%"}
{"Compound": "O=C1NC(=O)C(c2ccccc2)N1 (stereo not shown)", "inhibition": "69.8%"}
{"Compound": "Cc1ccc2c(c1)C1CN(C)CCC1N2 (stereo not shown)", "inhibition": "-10.6%"}
{"Compound": "O=C1OC2(c3ccccc31)c1cc(Br)c(O)c(Br)c1Oc1c2cc(Br)c(O)c1Br", "inhibition": "97.7%"}
{"Compound": "COc1ccc(C(=O)n2nc(-c3ccccc3)nc2N)cc1OC", "inhibition": "59.2%"}
{"Compound": "C=C1C(=O)[C@]23[C@H](O)[C@H]1CC[C@@H]2[C@@]12CO[C@]3(O)C[C@@H]1C(C)(C)CC[C@@H]2O", "inhibition": "95.1%"}
